# Measurements gathered from unrelated publications.
# Lines come from different studies, so protocols differ. Numbers after ± are the reported error.
# PRMT8: Protein arginine N-methyltransferase 8 (PRMT8, Homo sapiens, UniProt Q9NR22)
# Sequence of UniProt Q9NR22 (whole entry, looked up): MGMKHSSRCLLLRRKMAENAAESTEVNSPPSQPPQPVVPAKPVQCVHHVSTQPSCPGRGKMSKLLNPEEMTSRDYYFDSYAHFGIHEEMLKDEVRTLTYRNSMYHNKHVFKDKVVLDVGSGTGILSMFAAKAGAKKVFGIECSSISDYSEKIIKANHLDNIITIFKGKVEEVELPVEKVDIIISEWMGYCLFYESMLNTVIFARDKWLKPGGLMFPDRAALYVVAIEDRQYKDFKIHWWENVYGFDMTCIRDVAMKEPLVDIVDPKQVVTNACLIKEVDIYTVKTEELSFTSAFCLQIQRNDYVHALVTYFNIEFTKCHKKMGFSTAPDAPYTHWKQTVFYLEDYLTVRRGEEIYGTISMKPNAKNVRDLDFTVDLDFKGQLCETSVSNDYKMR
# Kcnmb1 with BK alpha subunit: Calcium-activated potassium channel subunit beta-1, with BK alpha subunit (Kcnmb1, Rattus norvegicus, UniProt P97678)
# Sequence of UniProt P97678 (whole entry, looked up): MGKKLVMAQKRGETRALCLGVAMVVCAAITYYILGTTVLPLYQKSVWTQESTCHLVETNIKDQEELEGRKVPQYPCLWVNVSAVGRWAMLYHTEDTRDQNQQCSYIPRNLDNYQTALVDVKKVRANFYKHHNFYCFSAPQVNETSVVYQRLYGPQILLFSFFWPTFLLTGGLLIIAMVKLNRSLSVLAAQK
# Sequence of UniProt Q923J1 (whole entry, unmodified, looked up): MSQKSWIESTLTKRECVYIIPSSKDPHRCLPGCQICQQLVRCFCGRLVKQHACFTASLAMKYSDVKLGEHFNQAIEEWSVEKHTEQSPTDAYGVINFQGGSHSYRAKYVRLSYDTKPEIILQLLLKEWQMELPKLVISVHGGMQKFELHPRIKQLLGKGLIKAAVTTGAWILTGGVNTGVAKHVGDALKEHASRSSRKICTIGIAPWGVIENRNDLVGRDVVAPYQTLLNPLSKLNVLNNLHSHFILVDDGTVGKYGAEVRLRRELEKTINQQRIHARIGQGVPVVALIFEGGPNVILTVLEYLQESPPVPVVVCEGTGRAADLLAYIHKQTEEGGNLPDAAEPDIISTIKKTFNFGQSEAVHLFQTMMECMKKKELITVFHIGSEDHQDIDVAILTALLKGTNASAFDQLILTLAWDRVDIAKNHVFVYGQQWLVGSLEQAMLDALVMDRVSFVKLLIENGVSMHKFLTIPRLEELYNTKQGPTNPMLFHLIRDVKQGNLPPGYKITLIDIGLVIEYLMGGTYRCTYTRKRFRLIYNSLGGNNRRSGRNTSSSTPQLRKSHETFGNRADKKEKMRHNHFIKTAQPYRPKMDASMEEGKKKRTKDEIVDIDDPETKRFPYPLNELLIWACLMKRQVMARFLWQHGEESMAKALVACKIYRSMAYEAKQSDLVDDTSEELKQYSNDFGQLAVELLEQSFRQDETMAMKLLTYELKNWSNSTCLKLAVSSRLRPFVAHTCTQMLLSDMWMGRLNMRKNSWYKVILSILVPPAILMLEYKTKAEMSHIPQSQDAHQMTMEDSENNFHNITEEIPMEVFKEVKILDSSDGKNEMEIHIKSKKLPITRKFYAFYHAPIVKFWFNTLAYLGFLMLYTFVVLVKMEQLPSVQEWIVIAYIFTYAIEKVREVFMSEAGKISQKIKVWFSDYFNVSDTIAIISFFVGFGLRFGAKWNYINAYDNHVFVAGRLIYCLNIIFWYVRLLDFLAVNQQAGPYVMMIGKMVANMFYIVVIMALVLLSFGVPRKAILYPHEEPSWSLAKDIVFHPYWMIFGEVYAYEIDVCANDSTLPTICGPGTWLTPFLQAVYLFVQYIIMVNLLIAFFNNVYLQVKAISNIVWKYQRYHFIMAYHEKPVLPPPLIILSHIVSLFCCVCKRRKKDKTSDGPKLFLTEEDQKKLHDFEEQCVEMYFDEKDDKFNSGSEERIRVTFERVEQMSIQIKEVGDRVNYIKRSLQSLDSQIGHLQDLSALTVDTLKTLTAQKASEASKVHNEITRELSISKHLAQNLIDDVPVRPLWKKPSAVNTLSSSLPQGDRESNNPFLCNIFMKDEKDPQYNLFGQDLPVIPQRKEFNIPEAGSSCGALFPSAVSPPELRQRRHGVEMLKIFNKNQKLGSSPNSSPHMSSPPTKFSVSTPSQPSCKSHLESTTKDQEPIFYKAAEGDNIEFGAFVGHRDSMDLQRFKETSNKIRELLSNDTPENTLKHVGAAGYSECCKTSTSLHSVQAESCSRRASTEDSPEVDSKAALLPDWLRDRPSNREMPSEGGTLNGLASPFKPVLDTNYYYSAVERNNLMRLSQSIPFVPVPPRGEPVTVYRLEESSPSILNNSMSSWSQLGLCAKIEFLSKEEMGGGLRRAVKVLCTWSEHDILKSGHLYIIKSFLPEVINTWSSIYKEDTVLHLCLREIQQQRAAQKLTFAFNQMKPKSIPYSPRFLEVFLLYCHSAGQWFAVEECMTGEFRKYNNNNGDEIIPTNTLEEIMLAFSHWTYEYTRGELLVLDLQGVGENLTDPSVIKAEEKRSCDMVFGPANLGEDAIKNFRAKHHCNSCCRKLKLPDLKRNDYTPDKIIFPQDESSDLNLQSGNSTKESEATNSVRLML
# Sequence of UniProt Q12791 (whole entry, looked up): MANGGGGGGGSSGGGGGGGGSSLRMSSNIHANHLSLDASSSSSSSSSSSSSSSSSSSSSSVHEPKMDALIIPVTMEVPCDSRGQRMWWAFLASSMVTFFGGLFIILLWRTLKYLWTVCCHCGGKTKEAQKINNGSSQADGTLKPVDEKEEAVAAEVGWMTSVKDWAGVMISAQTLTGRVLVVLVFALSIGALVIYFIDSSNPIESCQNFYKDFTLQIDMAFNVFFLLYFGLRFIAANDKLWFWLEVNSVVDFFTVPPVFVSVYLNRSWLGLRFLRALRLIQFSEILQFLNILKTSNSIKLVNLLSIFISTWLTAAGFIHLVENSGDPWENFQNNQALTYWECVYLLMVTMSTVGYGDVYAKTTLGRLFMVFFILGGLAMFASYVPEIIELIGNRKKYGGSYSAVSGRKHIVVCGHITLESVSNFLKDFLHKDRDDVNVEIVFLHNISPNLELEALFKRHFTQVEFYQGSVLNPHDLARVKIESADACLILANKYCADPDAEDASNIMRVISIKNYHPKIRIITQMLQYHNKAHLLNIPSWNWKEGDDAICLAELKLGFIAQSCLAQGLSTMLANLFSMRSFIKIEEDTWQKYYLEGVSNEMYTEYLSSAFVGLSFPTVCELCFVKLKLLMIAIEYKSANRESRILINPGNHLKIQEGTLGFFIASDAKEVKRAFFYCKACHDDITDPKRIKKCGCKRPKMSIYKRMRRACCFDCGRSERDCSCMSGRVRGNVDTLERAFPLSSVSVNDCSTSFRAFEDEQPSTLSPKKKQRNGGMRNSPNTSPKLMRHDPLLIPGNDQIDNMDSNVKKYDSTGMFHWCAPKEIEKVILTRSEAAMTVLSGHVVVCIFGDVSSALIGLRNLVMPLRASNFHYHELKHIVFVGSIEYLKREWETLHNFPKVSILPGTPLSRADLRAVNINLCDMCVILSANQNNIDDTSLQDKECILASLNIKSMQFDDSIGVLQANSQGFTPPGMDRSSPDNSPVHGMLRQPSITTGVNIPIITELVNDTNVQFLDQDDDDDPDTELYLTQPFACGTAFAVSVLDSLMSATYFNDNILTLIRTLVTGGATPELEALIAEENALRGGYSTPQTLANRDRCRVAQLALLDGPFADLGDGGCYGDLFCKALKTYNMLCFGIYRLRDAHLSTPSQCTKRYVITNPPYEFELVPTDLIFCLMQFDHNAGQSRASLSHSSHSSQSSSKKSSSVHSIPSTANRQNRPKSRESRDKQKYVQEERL
# Sequence of UniProt Q96D96 (whole entry, unmodified, looked up): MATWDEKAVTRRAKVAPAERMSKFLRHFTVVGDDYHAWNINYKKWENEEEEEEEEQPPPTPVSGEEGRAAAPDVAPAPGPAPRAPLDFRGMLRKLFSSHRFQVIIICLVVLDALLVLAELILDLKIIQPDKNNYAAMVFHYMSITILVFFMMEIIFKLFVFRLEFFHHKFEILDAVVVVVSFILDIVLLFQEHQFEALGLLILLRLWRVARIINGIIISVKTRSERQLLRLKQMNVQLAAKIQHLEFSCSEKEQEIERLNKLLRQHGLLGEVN
# Sequence of UniProt Q9QXD6 (whole entry, looked up): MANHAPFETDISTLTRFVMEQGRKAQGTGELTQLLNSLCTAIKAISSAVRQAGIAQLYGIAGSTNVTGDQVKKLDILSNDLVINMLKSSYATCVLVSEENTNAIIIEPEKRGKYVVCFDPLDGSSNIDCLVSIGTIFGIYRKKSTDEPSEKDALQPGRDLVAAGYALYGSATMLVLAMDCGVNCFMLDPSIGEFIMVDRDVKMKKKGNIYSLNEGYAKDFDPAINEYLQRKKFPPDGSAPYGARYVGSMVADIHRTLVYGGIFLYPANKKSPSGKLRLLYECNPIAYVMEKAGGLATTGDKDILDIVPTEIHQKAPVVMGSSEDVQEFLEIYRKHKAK
SMILES,target,test,system,setting,Hill coefficient
c1ccc2c(c1)CCC[C@H]2Nc1nc2ccccc2[nH]1,"Transient receptor potential cation channel subfamily M member 7 (Trpm7, Mus musculus, UniProt Q923J1, F924W)","calcium influx, inhibitor, aequorin luminescence",HEK293T expressing Trpm7,,1.46 ± 0.11
CC1(C)C(/C=C/C=C2/N(CCCc3ccccc3)c3ccc4ccccc4c3C2(C)C)=[N+](CCCc2ccccc2)c2ccc3ccccc3c21.[Br-],PRMT8,"inhibitor, scintillation proximity",,added: biotinylated histone H4 peptide substrate,1.63
N=C(N)Nc1nc2ccccc2[nH]1,"Voltage-gated hydrogen channel 1 (HVCN1, Homo sapiens, UniProt Q96D96, F149L/F150A)","proton current, inhibitor, inside-out patch clamp",,,0.94 ± 0.04
O=C(Cc1ccc([N+](=O)[O-])cc1)NC[C@H](c1ccccc1Cl)c1c[nH]c2ccccc12,Kcnmb1 with BK alpha subunit,BK channel current,CHO with alpha and beta1,,0.11 ± 0.09
N#Cc1ccc(COC[C@H]2O[C@@H](n3c(NCc4ccc(Cl)c(Cl)c4)nc4c(N)ncnc43)[C@H](O)[C@@H]2O)cc1,"Transient receptor potential cation channel subfamily M member 7 (Trpm7, Mus musculus, UniProt Q923J1)","calcium influx, inhibitor, aequorin luminescence",HEK293T expressing wild-type Trpm7,,2.27 ± 0.25
CN(C)C(=O)C(CCN1CCC(O)(c2ccc(Cl)cc2)CC1)(c1ccccc1)c1ccccc1,"Calcium-activated potassium channel subunit alpha-1, with LRRC26 γ1 subunit (KCNMA1, Homo sapiens, UniProt Q12791)","BK channel conductance, inside-out patch clamp",,"BKα/γ1, Vm 90 mV, nominally Ca2+-free",0.721 ± 0.065
COc1ccc(C(=O)NC(=S)Nc2ccc(O)c(-c3nc4ccc(C)cc4o3)c2)cc1[N+](=O)[O-],Kcnmb1 with BK alpha subunit,BK channel current,CHO with alpha and beta1,,0.39 ± 0.2
O=P(O)(O)OC[C@H]1O[C@@](CO)(OP(=O)(O)O)[C@@H](O)[C@@H]1O,"Fructose-1,6-bisphosphatase 1 (Mus musculus, UniProt Q9QXD6)",,,untagged wild type,1.4 ± 0.15
CC1(C)C(/C=C/C=C2/N(CCCc3ccccc3)c3ccc(Cl)cc3C2(C)C)=[N+](CCCc2ccccc2)c2ccc(Cl)cc21.[Br-],PRMT8,"inhibitor, scintillation proximity",,added: biotinylated histone H4 peptide substrate,3.33
Cc1n[nH]c(C)c1CCc1nc2c3ccccc3nc(SCc3ccc([N+](=O)[O-])cc3)n2n1,Kcnmb1 with BK alpha subunit,BK channel current,CHO with alpha and beta1,,0.06
C(/C=C/c1sc2c3ccccc3ccc2[n+]1CCCc1ccccc1)=C1/Sc2c(ccc3ccccc23)N1CCCc1ccccc1.[I-],PRMT8,"inhibitor, scintillation proximity",,added: biotinylated histone H4 peptide substrate,0.87
O=C(Nc1ccc(F)cc1)c1nnc(/C(Cl)=C\c2cccc([N+](=O)[O-])c2)s1,Kcnmb1 with BK alpha subunit,BK channel current,CHO with alpha and beta1,,0.27 ± 0.1

# For quick reference, copied from above:
SMILES,target,test,system,setting,Hill coefficient
CC1(C)C(/C=C/C=C2/N(CCCc3ccccc3)c3ccc(Cl)cc3C2(C)C)=[N+](CCCc2ccccc2)c2ccc(Cl)cc21.[Br-],PRMT8,"inhibitor, scintillation proximity",,added: biotinylated histone H4 peptide substrate,3.33
